Assay results of several laboratories.
Parts stem from different laboratories: compare values within a part only. Changes are numbered by the printed parent chain.

Block 1 — method: RNA Bind-n-Seq; form: RNA; sample: in vitro; concentration: 200 nM; setting: whole 134-nt RNA, ends assumed; together with: 150 mM KCl; baseline: input library; reading: higher = stronger binding; endpoint: log2 enrichment
Target: Ras GTPase-activating protein-binding protein 1, full length (G3BP1, Homo sapiens, UniProt Q13283)
Chain of UniProt Q13283 (whole entry, looked up): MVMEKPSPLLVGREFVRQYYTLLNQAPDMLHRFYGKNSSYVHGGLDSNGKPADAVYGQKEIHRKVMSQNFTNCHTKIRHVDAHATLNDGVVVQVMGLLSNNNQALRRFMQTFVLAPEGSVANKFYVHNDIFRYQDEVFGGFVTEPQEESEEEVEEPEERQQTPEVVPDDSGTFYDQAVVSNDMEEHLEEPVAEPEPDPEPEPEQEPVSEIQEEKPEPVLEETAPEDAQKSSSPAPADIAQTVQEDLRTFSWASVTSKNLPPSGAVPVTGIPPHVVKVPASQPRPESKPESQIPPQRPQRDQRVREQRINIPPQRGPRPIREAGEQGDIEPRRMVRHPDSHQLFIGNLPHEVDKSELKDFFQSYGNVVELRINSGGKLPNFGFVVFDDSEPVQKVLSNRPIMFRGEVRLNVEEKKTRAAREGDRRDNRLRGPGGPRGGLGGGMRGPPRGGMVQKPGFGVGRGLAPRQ
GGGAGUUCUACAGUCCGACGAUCUCCUGUGCUACACAUCGUAUGUACCGAAUCGGGGAGGGGAAAAAAAGGGGUUUUUGGGGAAAGUAUUAUGUUACGCCGUUCGGAUCUGCAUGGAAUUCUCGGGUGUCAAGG: 0.729
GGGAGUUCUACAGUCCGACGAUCACCAUGCAGGUGGGCAUCUUUGGGAAGUGGGGCAAGGGGGGGAUAGGGAGGGUGGUAACACUUUGGGAACAGGUGGUCCCAGGUCGUUUCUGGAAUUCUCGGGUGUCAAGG: 1.16
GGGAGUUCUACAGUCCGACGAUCAAGUCCUGUGCUACACAUCGUAUGUACCGAAUCGGGCCCCGGCCCCGGGGCCCCGGAAAGUAUUAUGUUACGCCGUUCGGAUCUGCACUUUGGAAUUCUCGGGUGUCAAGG: -1.62
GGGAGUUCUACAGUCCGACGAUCUGGGAGGUGGAUUUUGUAUAUUUUUUUAGCUCAUUUCCAGGGGUGGGAAUUUUUUUUUAAUAUGUGUCAUGAAUAAAGUUGUUUUUGAAAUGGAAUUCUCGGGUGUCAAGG: 0.232
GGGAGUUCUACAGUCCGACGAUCAGUCCUGUGCUACACAUCGUAUGUACCGAAUCGGGUUUGGGAAAAAGGGAAAAAGGGAAAGUAUUAUGUUACGCCGUUCGGAUCUGCACUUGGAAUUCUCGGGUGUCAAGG: -0.243
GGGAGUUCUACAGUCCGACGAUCCAAGUCCUGUGCUACACAUCGUAUGUACCGAAUCGUGUGUGUGUGUGUGUGUGUGAAAGUAUUAUGUUACGCCGUUCGGAUCUGCACUUCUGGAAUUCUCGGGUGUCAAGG: 0.488
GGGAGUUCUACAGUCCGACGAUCCAAGUCCUGUGCUACACAUCGUAUGUACCGAAUCGGAAAGGGAAAGGGGAAAGGGGAAAGUAUUAUGUUACGCCGUUCGGAUCUGCACUUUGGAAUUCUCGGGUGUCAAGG: -0.132
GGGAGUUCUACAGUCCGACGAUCAGUCCUGUGCUACACAUCGUAUGUACCGAAUCGGGGCCCCGGCCCCGGGGCCCCGGGAAAGUAUUAUGUUACGCCGUUCGGAUCUGCACUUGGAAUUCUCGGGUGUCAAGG: -1.46
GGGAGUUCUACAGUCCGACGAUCCUGUGCUACACAUCGUAUGUACCGAAUCGGGGAAAAAAAGGGGUUUUUUUGGGGAAAGGGGAAAGUAUUAUGUUACGCCGUUCGGAUCUGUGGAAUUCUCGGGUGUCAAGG: 0.042
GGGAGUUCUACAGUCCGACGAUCCUGUGCUACACAUCGUAUGUACCGAAUCGGGGAAAAAAAGGGAAAAAAAGGAAAAAAAGGGGAAAGUAUUAUGUUACGCCGUUCGGAUCUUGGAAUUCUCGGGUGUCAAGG: -0.539
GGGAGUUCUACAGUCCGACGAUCUGCCGAUUCGGAAGUCCUUGAGGAGCGUCAGAAGCGGCUUCCCUACGUCCCAGAGCCCUAUUACCCGGAAUCUGGAUGGGACCGCCUCCGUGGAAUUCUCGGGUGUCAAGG: -0.493
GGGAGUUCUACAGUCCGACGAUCUUACGAUUAUAUCACCCGGACACACAUCAUGCUUAAGAUUCAACUGGGAGCAUACCAGGGAUGCUCUCUAACGUAAUCAAGGGAAGGUUCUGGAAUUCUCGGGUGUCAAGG: -1.48
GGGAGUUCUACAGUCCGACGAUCUCUCCACCUGCUGAGCUCCCCAGUUUGAGGCGGAGCACACGCCAAAAGACCACGGGCUCCUGUGCUAGUACCAGGUAAUUUGUUUUUUUUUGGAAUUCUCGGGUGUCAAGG: 0.556
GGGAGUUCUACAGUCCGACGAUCAGUCCUGUGCUACACAUCGUAUGUACCGAAUCGGAAAAAAAGGUUUGGAAAAAAAGGAAAGUAUUAUGUUACGCCGUUCGGAUCUGCACUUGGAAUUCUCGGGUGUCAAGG: -1.77

Block 2 — method: protein binding microarray; form: double-stranded DNA, one strand shown; sample: in vitro; concentration: not given; baseline: not given; reading: higher = stronger binding; endpoint: E-score
Target: Histone acetyltransferase KAT6A, both winged helices, GST fusion (KAT6A, Homo sapiens, UniProt Q92794, residues 1-181)
Setting: 8-mer, flanks averaged, mean of 2 arrays, mostly near background
Residues (chain): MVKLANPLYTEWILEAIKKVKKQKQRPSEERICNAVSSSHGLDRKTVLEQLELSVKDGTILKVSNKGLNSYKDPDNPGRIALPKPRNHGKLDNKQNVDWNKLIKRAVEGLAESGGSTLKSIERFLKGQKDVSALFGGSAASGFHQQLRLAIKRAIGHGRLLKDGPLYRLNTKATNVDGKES
GGGAGCAA: -0.116
ATTTACAA: -0.0694
TCAATTAA: -0.0603
ATTTGCAC: -0.17
ACAATCAA: -0.113
GCCCTTTA: 0.0302
ACGTGCTA: -0.0109
GACCCTTA: 0.0173
AACCGGTT: 0.136
TATCTAGA: -0.159
CACCTGCA: -0.208
GAGCTGGA: -0.133
CTCTTGTC: -0.144
GATGTCAA: -0.0173
GTAATAAA: 0.0174
ATGTCAAC: -0.0622
GTAAGCCA: -0.0808

Block 3 — target: CCND2, cyclin fold, Cln2 fusion (human); method: yeast growth competition, sequencing; sample: yeast; setting: weak parent motif; baseline: not given; reading: higher = stronger binding; endpoint: normalised enrichment score
Parent: REPIN1 docking peptide (human); QSFRGWVALVLHL; partner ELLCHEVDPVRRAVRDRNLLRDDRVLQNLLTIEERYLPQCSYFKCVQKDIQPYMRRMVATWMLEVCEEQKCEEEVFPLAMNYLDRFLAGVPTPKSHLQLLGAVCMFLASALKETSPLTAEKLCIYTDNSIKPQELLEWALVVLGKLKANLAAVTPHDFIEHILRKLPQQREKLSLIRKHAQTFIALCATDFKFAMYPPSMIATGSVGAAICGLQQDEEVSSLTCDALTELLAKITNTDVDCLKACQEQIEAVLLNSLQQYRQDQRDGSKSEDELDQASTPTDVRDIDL
QSFRAWVALVLHL [G5A]: -0.0825
QSFRGWVALALHL [V10A]: -0.383
QSFRGWVAAVLHL [L9A]: -0.901
QSFRGWVALVLHA [L13A]: -0.304
QAFRGWVALVLHL [S2A]: -0.109
QSFAGWVALVLHL [R4A]: -0.734

Block 4 — method: RNA Bind-n-Seq; form: RNA; sample: in vitro; concentration: 365 nM; baseline: no-protein control; reading: higher = stronger binding; endpoint: RBNS enrichment (R)
Target: RNA binding protein fox-1 homolog 2, RRM domain, GST-SBP tag (RBFOX2, Homo sapiens, UniProt O43251-10, residues 100-194)
Setting: natural RNA segment, single round, ends assumed
Target sequence (chain): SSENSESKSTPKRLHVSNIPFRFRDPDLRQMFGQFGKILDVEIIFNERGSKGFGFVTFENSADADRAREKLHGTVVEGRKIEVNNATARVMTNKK
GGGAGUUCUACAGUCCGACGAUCUGUCUCUAGGUCGCUGAGAGAGGUGCUUUUCUUCAUAAAACCUUUGGGGUUUGGAUUUCCCCAGGAAGAUGGAGAAUGGAAUACUCACUCUUGGGUCUAAUCUUUCCCCUUGGAAUUCUCGGGUGCCAA: 0.353
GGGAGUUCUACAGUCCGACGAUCCUAUGCACUUGAAGAUGGUUUAAAAGAUUAAAGAAACGAUUAAGAGAAAAGGUUGGAAGCUUUAUACUAAAUGGGCUCCUUCAUGGUGACGCCCCGUCAACCACAAUCAAUGGAAUUCUCGGGUGCCAA: 0.415
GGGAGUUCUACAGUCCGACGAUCAAAAACAAAAACAAAAAACUUAAACUCCACUUUGUACCUUAGAUUUUAAAACUGGGUAGAAAUGUAAUAUACAUUGGACCACUUUUUUAAGCCUUAAUGAACAGUGUAUAUGGAAUUCUCGGGUGCCAA: 0.485
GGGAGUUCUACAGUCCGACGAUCUCCCGGCCCUCCCCAGGGCCCCCCGCCCCCUCCUCUGCCUGCUGCGUGGAGGCAGCCAUGGGAAGGAGCCCAGGGGAGCUGGCCUGGGGGAGCGAAGCCCAUGUUCGCUUUGGAAUUCUCGGGUGCCAA: 0.551
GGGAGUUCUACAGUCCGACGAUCCUCAUGUGAAGUGAUCUUGAUUCUUCUGAGGUUUUAAACUAAAAUGUUGCUUCCUGUUUUAGUGUCUGAACUCUGACAGGGUGACAGGGACCUUGCUGGUGUAGUCUUUUUGGAAUUCUCGGGUGCCAA: 0.858
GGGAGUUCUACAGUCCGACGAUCGCCUCACACACCAUUUGUCCCAGACCAGUGGCAUUAGGCCAUAUAUUCUCUUCUAGUGUUUGCUUAAAAUAUGUGAAGUUUUUCUUGCUAUUUCAAUAACAAAUGGUGCUUGGAAUUCUCGGGUGCCAA: 0.43
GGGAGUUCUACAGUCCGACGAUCUGCAGGCUCCUACUGCCCAUGCUGUGGCUGGAUUAAACAGCACGGGGUCUGAUAGAAAACGGGACUGCUCUGCACCAACAGCCUGUCACAGACAGGACAGCUGGACCACAUGGAAUUCUCGGGUGCCAA: 0.425
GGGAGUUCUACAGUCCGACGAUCCAGGUGGCCCCAGUUCAAUCUCCCGCUGCUGCUGCUGCGCCCUUACCUUCCCCAGCGUCCCAGUCUCUGGCAGUUCUGGAAUGGAAGGGUUCUGGCUGCCCCAACCUGCUUGGAAUUCUCGGGUGCCAA: 0.253
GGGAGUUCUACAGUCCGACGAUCUCCUGACAAAUCUGAUUUUUCUAGAAUCCUGUUCUUCCCUCACCUUAGGGAAGGAGAAUGUUUGUCCUGUCUCCCUACACUUCCCUGAGGGCUUCUUCCUACCAAAGUGUUGGAAUUCUCGGGUGCCAA: 0.35
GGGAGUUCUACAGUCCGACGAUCUGUCAGAUGACUUGCACUUCUUAAAGAGAUUGCUUUAUAACACUAAGACAUCCUUUCUAAAGAUUCAAGUGGACUUGACUAAGCUGAGGGUCCACGAAAUAGAAUAUGACUGGAAUUCUCGGGUGCCAA: 0.261
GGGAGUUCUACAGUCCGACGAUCAGGAAGACAAAGGAAGGGCCAAGGGCACCCCCGUCUAGAAUGCCAGAACCAGCGGGUGGCCUUAGGGGCUGUGAGGCAGUGGGGACCUUAUUGAUGAAAGAAACCGUCUUUGGAAUUCUCGGGUGCCAA: 2.75
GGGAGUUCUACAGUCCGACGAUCCAGCAGCUUCGCACAAUACCAAAGUUUUAAAGUUGGUGAUAAAAAGUCUUUUUAUGAACUAAAUAUUGGAGAAUAUUCUGGCACAGCUGGAGAUUCCCUGUCAGGAACUUUGGAAUUCUCGGGUGCCAA: 0.41

Block 5 — method: DHFR PCA, deep sequencing; sample: yeast; together with: (+)-ABA 1.4 µM; baseline: wild-type fitted maximum; reading: higher = stronger binding; endpoint: relative binding score
Target: ABI1, truncated, D143A, DHFR fusion (Arabidopsis thaliana)
Setting: methotrexate growth selection, single substitutions
Parent: PYL1, truncated, DHFR fusion (Arabidopsis thaliana); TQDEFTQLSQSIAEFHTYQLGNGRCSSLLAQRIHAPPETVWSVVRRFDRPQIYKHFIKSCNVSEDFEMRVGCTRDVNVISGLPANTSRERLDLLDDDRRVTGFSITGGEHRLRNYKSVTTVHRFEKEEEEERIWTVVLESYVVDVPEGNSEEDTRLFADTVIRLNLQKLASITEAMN; partner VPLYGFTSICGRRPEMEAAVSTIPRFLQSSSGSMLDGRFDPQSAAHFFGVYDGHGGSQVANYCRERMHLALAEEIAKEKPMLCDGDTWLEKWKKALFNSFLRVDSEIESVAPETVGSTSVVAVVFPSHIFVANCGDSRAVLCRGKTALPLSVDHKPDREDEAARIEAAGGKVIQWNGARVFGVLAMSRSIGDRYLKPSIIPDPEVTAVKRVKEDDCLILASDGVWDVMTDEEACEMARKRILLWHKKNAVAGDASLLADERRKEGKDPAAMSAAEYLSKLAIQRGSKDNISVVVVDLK
S26R: 0.36%
S59N: 41.8%
E130G: 59.6%
I33V: 35%
K168L: 11.3%
D65E: 44.8%
G21E: 59.3%
D97K: 67.8%
F103R: -3.54%
E109W: -6.21%
S171L: 40.3%
G81S: 14.8%
Q19W: 15.9%
R123H: 59.7%
F15I: -23.3%
S87I: 31.9%

Further values, each from its own experiment
PhoQ, residues 284 288 289 292 302 303 NLGVHL  fold induction (PhoP, residues 12 14 15 18 19 GQALL (Escherichia coli, UniProt P23836); Sort-seq, measured: YFP reporter; E. coli; PhoQ-PhoP variant library, together with: 10 µM Mg2+; baseline: high Mg2+ state, higher = stronger signaling): 1.67

Excerpt of the above (block 5):
G81S: 14.8%
R123H: 59.7%
S26R: 0.36%
E109W: -6.21%
D97K: 67.8%
K168L: 11.3%
F103R: -3.54%
E130G: 59.6%
S171L: 40.3%
S87I: 31.9%
D65E: 44.8%
